# Measurements of several laboratories.
# Numbers after ± are the reported error.
# Target: mushroom tyrosinase
Structure (SMILES),read-out,mode,technique,with,IC50
O=C(/C=C/c1ccc(O)cc1)NCCCCN(CCCNC(=O)/C=C/c1ccc(O)cc1)C(=O)/C=C\c1ccc(O)cc1,enzyme activity,inhibitor,,L-DOPA,31.8 µM
COc1ccc(C2SCC(CO)S2)cc1OC (stereo not drawn),enzyme activity,inhibitor,dopachrome absorbance,L-tyrosine,17 ± 2.99 µM
Cc1cc(O)cc2c1C(=O)c1c(cc3oc(=O)cc(-c4ccc(Cl)cc4)c3c1O)C2=O,enzyme activity,,,L-DOPA,71.48 ± 0.17 µg/mL
O=C1c2ccccc2C(=O)c2c1ccc1c2C(C(=O)Nc2ccc(Cl)cc2)C(=O)C1c1ccccc1 (stereo not drawn),,inhibitor,,L-DOPA substrate,> 100 µg/mL
COc1c2c(cc3oc(=O)cc(-c4ccc(O)cc4)c13)C(=O)c1cc(C)cc(O)c1C2=O,enzyme activity,,,L-DOPA,61.96 ± 0.48 µg/mL
COc1ccc(C2SCC(CO)S2)c(OC)c1 (stereo not drawn),enzyme activity,inhibitor,dopachrome absorbance,L-tyrosine,27.9 ± 1.47 µM
c1ccc(CSCc2ccccc2)cc1,,,,L-tyrosine,> 2400 µM
OCC1CSC(c2ccc(O)cc2O)S1 (stereo not drawn),enzyme activity,inhibitor,dopachrome absorbance,L-tyrosine,13.9 ± 1.76 µM
Cc1ccc(NC(=O)C2C(=O)C(c3ccccc3)c3ccc4c(c32)C(=O)c2ccccc2C4=O)cc1 (stereo not drawn),,inhibitor,,L-DOPA substrate,13.4 ± 0.24 µg/mL
COc1cc(OC)c2c(c1)C(=O)c1cc3oc(=O)cc(-c4ccc(Cl)cc4)c3c(O)c1C2=O,enzyme activity,,,L-DOPA,94.08 ± 0.32 µg/mL
O=C1c2ccccc2C(=O)c2c1ccc1c2C(C(=O)Nc2ccccc2)C(=O)C1c1ccccc1 (stereo not drawn),,inhibitor,,L-DOPA substrate,80.2 ± 1.36 µg/mL
COc1ccc(CSCc2ccc(OC)cc2)cc1,,,,L-tyrosine,40 µM

# For quick reference, copied from above:
Structure (SMILES),read-out,mode,technique,with,IC50
Cc1cc(O)cc2c1C(=O)c1c(cc3oc(=O)cc(-c4ccc(Cl)cc4)c3c1O)C2=O,enzyme activity,,,L-DOPA,71.48 ± 0.17 µg/mL
